Published values pooled from the literature.
Every numbered part comes from another study and shows a few of its results, in no order.

Sample 1 — technique: aptamer microarray, sandwich; form: DNA with 2'F-ANA; matrix: in vitro; tested at: 200 nM; together with: Cy3 exosite-II aptamer, 400 nM; direction: higher = stronger binding; sequence: GGTTGGTGTGGTTGG
Target: Prothrombin, mature alpha-thrombin (F2, Homo sapiens, UniProt P00734)
Setting: whole 15-mer aptamer, many near background
For `2'F-ANA at 1 2 6 9 10 11 12 14 15`, “mean fluorescence intensity” read 54.1 a.u.
`2'F-ANA at 1 2 3 4 5 7 8 9 10 11 12 15` — result for “mean fluorescence intensity”: 84.7 a.u.
`2'F-ANA at 2 3 5 7 8 14` — result for “mean fluorescence intensity”: 56.5 a.u.
Under “mean fluorescence intensity”, `2'F-ANA at 9 10 11 12 13 14 15` is recorded as 102 a.u.
`2'F-ANA at 2 5 6 7 8 9 10 11` — result for “mean fluorescence intensity”: 49.1 a.u.
`2'F-ANA at 1 3 4 6 10 14 15`: “mean fluorescence intensity” 62.8 a.u.

Sample 2 — technique: universal PBM; form: double-stranded DNA, one strand shown; matrix: in vitro; tested at: not given; direction: higher = stronger binding
Target: Sal-like protein 4, full length isoform B (SALL4, Homo sapiens, UniProt Q9UJQ4-2, residues 1-616)
Setting: 8-mer, flanks averaged, mean of replicates
`CAAACCCG` gave an E-score of -0.13.
`CACTTAAC` has an E-score of 0.0684.
The E-score of `GGCCTCAA` is reported as -0.167.
`AGATAAGG` has an E-score of 0.00112.
`GGAGCAAA` gave an E-score of 0.0921.
`CAACGGCC` gave an E-score of -0.213.

Sample 3 — technique: protein binding microarray; form: double-stranded DNA, one strand shown; matrix: in vitro; tested at: not given; reference: not given; direction: higher = stronger binding
Target: Histone acetyltransferase KAT6A, winged helix 2, GST fusion (KAT6A, Homo sapiens, UniProt Q92794, residues 85-181)
Setting: 8-mer, flanks averaged, mean of 2 arrays, mostly near background
Construct (chain): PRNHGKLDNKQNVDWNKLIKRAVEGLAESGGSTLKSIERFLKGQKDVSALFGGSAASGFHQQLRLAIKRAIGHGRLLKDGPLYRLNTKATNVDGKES
`AGAGAGGA` gave an E-score of -0.0189.
For `ACACCGAA`, the E-score was -0.0292.
With `ACGGAGAG` the E-score was 0.0282.
The E-score of `CGCTGCCG` is reported as 0.131.
For `AACACCAA`, the E-score was -0.198.
For `TCAGCGGA`, the E-score was 0.154.

Other studies, line by line
The fold induction of `PhoQ, residues 284 288 289 292 302 303 SQSLSM` is reported as 1.3 (PhoP, residues 12 14 15 18 19 LHSVW (Escherichia coli, UniProt P23836); Sort-seq, measured: YFP reporter; E. coli; PhoQ-PhoP variant library, together with: 10 µM Mg2+; reference: high Mg2+ state, higher = stronger signaling).
